Experimental data of several laboratories.
Each line is one published result; not all experiments were run side by side. Numbers after ± are the reported error.
Sensor histidine kinase AirS: Sensor histidine kinase AirS (Staphylococcus aureus, UniProt Q2FX96)
PIK3CG: Phosphatidylinositol 4,5-bisphosphate 3-kinase catalytic subunit gamma isoform (PIK3CG, Homo sapiens, UniProt P48736)
UniProt P48736, sequence (whole entry, looked up): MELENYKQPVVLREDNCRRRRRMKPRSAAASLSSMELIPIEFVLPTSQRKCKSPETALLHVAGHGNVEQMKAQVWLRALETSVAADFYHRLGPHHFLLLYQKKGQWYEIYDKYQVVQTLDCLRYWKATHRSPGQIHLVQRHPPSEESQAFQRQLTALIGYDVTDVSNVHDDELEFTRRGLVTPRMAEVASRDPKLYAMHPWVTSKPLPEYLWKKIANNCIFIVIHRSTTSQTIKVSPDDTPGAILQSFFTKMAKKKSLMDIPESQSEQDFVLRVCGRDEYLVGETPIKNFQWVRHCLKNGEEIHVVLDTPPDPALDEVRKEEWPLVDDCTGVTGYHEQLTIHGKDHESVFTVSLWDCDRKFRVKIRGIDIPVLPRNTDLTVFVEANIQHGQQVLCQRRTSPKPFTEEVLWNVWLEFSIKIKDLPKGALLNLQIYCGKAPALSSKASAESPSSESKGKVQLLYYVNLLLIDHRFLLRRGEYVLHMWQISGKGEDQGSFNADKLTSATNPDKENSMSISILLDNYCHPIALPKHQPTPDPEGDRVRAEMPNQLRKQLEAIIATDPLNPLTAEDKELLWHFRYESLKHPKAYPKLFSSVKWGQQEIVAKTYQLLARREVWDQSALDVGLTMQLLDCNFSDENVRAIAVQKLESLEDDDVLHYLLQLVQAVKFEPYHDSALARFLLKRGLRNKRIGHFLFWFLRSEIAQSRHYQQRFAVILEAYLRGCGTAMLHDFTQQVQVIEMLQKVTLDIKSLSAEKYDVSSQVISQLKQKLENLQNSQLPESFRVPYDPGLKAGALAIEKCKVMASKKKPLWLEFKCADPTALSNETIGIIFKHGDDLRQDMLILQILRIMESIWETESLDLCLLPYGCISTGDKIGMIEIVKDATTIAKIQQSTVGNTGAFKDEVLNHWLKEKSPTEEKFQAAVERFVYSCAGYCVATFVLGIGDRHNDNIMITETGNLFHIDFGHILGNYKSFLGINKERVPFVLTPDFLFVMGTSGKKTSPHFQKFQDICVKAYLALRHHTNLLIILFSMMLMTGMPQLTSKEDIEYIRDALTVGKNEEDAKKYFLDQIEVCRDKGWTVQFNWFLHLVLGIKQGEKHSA
PPARA ligand-binding domain: Peroxisome proliferator-activated receptor alpha, ligand-binding domain (PPARA, Homo sapiens, UniProt Q07869)
UniProt Q07869, sequence (whole entry, looked up): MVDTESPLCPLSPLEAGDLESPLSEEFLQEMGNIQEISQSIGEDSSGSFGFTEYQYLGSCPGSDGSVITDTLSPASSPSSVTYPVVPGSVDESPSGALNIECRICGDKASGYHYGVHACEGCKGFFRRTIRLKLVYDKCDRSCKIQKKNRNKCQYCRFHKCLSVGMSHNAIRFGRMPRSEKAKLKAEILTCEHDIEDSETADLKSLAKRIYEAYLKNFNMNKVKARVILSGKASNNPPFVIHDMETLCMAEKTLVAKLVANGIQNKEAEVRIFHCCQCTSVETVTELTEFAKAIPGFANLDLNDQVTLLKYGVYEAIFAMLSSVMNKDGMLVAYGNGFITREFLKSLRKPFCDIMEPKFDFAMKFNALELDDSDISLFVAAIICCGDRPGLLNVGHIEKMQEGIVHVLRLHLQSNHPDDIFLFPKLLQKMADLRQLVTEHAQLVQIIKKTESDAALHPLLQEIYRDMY
Chymotrypsinogen A: Chymotrypsinogen A (Bos taurus, UniProt P00766)
CHEK1: Serine/threonine-protein kinase Chk1 (CHEK1, Homo sapiens, UniProt O14757)
UniProt O14757, sequence (whole entry, looked up): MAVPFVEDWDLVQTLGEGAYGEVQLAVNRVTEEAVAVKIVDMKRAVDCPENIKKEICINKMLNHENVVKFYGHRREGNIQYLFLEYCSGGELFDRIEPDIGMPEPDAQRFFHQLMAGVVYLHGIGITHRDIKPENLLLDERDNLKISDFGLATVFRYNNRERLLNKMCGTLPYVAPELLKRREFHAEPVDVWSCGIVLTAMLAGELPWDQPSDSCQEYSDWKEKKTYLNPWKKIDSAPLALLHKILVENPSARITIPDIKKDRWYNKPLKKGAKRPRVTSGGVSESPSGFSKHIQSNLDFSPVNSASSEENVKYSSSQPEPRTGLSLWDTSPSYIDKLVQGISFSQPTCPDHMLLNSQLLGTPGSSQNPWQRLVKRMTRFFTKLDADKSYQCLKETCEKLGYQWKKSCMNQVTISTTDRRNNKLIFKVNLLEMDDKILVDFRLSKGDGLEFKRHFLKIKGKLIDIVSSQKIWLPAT
GBA2: Beta-glucosidase (GBA2, Homo sapiens, UniProt Q9HCG7)
UniProt Q9HCG7, sequence (whole entry, looked up): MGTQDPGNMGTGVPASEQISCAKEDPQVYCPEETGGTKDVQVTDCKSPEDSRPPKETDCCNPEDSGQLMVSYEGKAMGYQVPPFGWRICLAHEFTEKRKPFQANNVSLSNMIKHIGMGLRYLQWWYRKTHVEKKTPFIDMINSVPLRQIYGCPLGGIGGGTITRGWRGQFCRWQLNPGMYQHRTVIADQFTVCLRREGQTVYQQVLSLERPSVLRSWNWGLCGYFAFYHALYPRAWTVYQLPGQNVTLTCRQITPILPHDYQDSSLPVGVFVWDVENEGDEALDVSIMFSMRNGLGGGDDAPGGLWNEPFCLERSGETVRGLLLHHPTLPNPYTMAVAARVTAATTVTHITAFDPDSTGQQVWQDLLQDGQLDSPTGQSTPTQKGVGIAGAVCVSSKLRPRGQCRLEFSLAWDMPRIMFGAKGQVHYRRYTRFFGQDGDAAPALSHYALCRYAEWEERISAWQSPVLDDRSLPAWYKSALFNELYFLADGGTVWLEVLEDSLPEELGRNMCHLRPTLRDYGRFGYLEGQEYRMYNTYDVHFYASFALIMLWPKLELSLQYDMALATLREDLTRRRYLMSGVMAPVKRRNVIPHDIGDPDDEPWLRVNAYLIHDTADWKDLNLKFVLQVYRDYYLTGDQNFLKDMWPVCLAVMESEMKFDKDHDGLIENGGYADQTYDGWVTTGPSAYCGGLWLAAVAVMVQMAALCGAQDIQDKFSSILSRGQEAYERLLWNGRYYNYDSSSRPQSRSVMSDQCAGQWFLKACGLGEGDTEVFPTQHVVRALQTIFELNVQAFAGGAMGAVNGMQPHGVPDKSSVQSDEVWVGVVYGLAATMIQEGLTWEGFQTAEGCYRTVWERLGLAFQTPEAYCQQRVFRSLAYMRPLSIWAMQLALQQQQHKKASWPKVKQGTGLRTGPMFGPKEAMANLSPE
PIP4K2C: Phosphatidylinositol 5-phosphate 4-kinase type-2 gamma (PIP4K2C, Homo sapiens, UniProt Q8TBX8)
UniProt Q8TBX8, sequence (whole entry, looked up): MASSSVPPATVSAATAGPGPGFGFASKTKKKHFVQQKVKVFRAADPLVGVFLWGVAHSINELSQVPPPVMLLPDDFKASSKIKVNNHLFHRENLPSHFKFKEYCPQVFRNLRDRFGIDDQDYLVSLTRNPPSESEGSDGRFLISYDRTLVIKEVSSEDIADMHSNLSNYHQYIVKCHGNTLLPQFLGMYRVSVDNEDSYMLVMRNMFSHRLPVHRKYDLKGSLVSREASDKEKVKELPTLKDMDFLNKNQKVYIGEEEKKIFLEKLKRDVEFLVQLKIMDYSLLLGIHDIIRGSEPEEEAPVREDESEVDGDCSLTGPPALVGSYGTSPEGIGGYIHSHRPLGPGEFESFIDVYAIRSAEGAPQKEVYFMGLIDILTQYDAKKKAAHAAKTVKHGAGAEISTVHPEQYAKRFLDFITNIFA
UniProt Q96PN6, sequence (whole entry, looked up): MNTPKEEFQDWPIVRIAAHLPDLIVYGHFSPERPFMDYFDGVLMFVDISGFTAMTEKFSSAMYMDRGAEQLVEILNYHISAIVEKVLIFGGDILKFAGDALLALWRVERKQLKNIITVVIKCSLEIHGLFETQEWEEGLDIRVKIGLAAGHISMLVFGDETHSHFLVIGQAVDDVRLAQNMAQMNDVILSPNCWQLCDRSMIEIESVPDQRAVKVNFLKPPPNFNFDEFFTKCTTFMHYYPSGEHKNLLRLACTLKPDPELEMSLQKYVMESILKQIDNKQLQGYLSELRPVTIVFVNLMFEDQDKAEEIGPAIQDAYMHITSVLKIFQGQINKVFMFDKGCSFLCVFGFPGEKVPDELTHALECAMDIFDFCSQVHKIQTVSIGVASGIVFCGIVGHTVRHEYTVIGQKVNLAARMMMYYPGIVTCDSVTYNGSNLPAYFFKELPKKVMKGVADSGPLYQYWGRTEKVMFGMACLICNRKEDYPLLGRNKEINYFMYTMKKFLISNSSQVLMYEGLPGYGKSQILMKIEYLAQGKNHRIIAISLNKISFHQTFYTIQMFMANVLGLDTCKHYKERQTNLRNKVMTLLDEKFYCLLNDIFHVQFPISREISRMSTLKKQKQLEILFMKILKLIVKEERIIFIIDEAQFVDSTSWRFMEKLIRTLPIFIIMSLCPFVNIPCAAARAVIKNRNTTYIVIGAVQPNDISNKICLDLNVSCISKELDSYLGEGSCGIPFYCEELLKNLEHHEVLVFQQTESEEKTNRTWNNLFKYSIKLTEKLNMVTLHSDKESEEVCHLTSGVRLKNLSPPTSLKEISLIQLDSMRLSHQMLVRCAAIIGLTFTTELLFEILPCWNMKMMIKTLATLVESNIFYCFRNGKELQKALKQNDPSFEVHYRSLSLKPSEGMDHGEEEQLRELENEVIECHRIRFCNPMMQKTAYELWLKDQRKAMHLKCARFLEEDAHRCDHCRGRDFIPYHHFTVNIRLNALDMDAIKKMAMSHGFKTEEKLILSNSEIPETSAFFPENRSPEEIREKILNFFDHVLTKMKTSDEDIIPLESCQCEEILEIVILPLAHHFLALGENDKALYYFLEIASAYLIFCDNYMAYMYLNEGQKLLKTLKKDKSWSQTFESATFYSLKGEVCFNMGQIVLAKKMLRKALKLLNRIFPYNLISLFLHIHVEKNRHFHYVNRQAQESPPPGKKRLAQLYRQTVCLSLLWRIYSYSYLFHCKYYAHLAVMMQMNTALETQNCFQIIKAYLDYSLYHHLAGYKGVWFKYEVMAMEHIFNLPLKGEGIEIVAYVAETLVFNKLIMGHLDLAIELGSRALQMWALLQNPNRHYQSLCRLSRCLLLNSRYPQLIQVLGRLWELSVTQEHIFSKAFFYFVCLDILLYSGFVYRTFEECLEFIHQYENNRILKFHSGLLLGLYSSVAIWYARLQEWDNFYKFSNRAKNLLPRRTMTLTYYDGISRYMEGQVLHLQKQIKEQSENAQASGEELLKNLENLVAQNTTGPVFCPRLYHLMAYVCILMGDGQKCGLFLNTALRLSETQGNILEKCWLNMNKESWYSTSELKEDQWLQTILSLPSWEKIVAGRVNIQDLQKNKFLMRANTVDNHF

CN(C1=C(c2ccccc2)C(=O)NC1=O)c1ccc(Cl)cc1
IC50 (Sensor histidine kinase AirS; autophosphorylation, inhibitor, BODIPY-FL-ATPγS in-gel fluorescence; lower bound of confidence interval): > 605000 nM

Cc1nc(N(C)c2ccc3c(c2)/C(=C/c2ccccc2)C(=O)N3C)c2ccccc2n1
IC50 (PIK3CG; enzyme activity, inhibitor, ADP detection): 246 nM

Cc1c(Cc2cncc(O[C@H](C)C(=O)O)c2)c2ccc(C(=O)N[C@@H](C)c3ccc(C(C)(C)C)cc3)cc2n1CC1CCC1
IC50 (PPARA ligand-binding domain; reporter gene, luciferase reporter; HEK293T, Gal4-PPARα LBD): 110 nM

COCCn1cc(COc2cccc(Cc3cnc(NC(=O)CSc4nc(C)cc(C)n4)s3)c2)nn1
IC50 (NAD-dependent protein deacetylase sirtuin-2 (SIRT2, Homo sapiens, UniProt Q8IXJ6); inhibitor): 350 ± 130 nM

O=C(NCc1ccccc1Cl)C(C(F)(F)F)C(F)(F)F
IC50 (Chymotrypsinogen A; enzyme activity, inhibitor, fluorescence): 14000 nM

COc1cc(-c2ccc3c(c2)Nc2ccc(C(=O)N4CCCC4C(=O)O)cc2NC3=O)ccc1O (stereo not drawn)
IC50 (CHEK1; enzyme activity, inhibitor): 139 nM

O=C1/C(=N\c2ccc(Cl)cc2Br)c2ccccc2N1C(=O)c1ccccc1
IC50 (PIK3CG; enzyme activity, inhibitor, ADP detection): 99.6 nM

NCCCCOC(=O)c1ccc(/N=N/c2ccccc2)cc1
IC50 (Islet amyloid polypeptide (IAPP, Homo sapiens, UniProt P10997); ThT displacement, ThT fluorescence; pH 7.4, preformed target-ThT complex, together with: 5 µM ThT): 3500 nM

Cc1c(Cc2ccc(OC(C)C(=O)O)cc2)c2ccc(C(=O)NC(C)c3cccc(C(F)(F)F)c3)cc2n1C (mixture of isomers)
IC50 (PPARA ligand-binding domain; reporter gene, luciferase reporter; HEK293T, Gal4-PPARα LBD): 4600 nM

COc1cc(/C=C/C(=O)Oc2ccc(C(F)(F)F)c(C(F)(F)F)c2)ccc1O
IC50 (3-oxo-5-alpha-steroid 4-dehydrogenase 1 (SRD5A1, Homo sapiens, UniProt P18405); enzyme activity in cells, inhibitor): 10100 nM

Cc1c(Cc2cccc(OC(C)C(=O)O)c2)c2ccc(C(=O)NC(C)c3ccc(C4CC4)cc3)cc2n1C (mixture of isomers)
IC50 (PPARA ligand-binding domain; reporter gene, luciferase reporter; HEK293T, Gal4-PPARα LBD): 31900 nM

OB1c2sccc2C=NN1Cc1ccccc1
IC50 (Urokinase-type plasminogen activator (PLAU, Homo sapiens, UniProt P00749); enzyme activity, inhibitor): > 100000 nM

Cc1c(Cc2cccc(OC(C)(C)C(=O)O)c2)c2ccc(C(=O)N[C@@H](C)c3cccc(C(C)C)c3)cc2n1C
IC50 (PPARA ligand-binding domain; reporter gene, luciferase reporter; HEK293T, Gal4-PPARα LBD): 160 nM

O=C(Nc1ccccc1OCC1CC1)C(C(F)(F)F)C(F)(F)F
IC50 (Chymotrypsinogen A; enzyme activity, inhibitor, fluorescence): 15000 nM

OC[C@@H]1[C@@H](O)[C@H](O)[C@@H](O)CN1CCCCCOCC1CCCC1
IC50 (GBA2; inhibitor, 4MU-β-D-glucopyranoside; HEK293T homogenates overexpressing GBA2): 9 nM

O=C1NC(=O)C(N2CCc3ccccc32)=C1c1ccccc1
IC50 (Sensor histidine kinase AirS; autophosphorylation, inhibitor, BODIPY-FL-ATPγS in-gel fluorescence; lower bound of confidence interval): > 7600 nM

CC(C)CCOc1ccccc1NC(=O)C(C(F)(F)F)C(F)(F)F
IC50 (Chymotrypsinogen A; enzyme activity, inhibitor, fluorescence): 13000 nM

OC[C@@H]1[C@@H](O)[C@H](O)[C@@H](O)CN1CCCCCOCc1ccc(-c2cncnc2)cc1
IC50 (GBA2; inhibitor, 4MU-β-D-glucopyranoside; HEK293T homogenates overexpressing GBA2): 25 nM

COCCOc1ccccc1NC(=O)C(C(F)(F)F)C(F)(F)F
IC50 (Chymotrypsinogen A; enzyme activity, inhibitor, fluorescence): 5700 nM

Cc1c(Cc2ccc(OC(C)C(=O)O)cc2)c2ccc(C(=O)N[C@@H](C)c3ccc(C(C)C)cc3)cc2n1C (stereo partly drawn)
IC50 (PPARA ligand-binding domain; reporter gene, luciferase reporter; HEK293T, Gal4-PPARα LBD): 12700 nM

Cc1c(CC(=O)NCCCO)c(=O)oc2cc(O)cc(O)c12
IC50 (Beta-1,4-galactosyltransferase 1 (B4GALT1, Homo sapiens, UniProt P15291); enzyme activity, inhibitor): 8000 nM

Cc1c(Cc2ccc(OC(C)(C)C(=O)O)cc2)c2ccc(C(=O)N[C@@H](C)c3ccc(C(C)C)cc3)cc2n1C
IC50 (PPARA ligand-binding domain; reporter gene, luciferase reporter; HEK293T, Gal4-PPARα LBD): 660 nM

OC[C@@H]1[C@@H](O)[C@H](O)[C@@H](O)CN1CCCCCCOCC12CC3CC(CC(C3)C1)C2
IC50 (GBA2; inhibitor, 4MU-β-D-glucopyranoside; HEK293T homogenates overexpressing GBA2): 2 nM

Cc1c(Cc2ccc(OC(C)C(=O)O)cc2)c2ccc(C(=O)N[C@@H](C)c3cccc(C(C)(C)C)c3)cc2n1C (stereo partly drawn)
IC50 (PPARA ligand-binding domain; reporter gene, luciferase reporter; HEK293T, Gal4-PPARα LBD): 1730 nM

Cc1ccc(CN2C(=O)C3(c4ccccc42)C(c2ccc(F)cc2)NC2(C(=O)N(C(=O)CCc4ccccc4)c4ccccc42)N3Cc2ccc(F)cc2)cc1 (stereo not drawn)
IC50 (PIK3CG; enzyme activity, inhibitor, ADP detection): 18.7 nM

Cc1ccc(S(=O)(=O)N2CC(NC(=O)c3ccccc3F)C2=O)cc1 (stereo not drawn)
IC50 (Chymotrypsinogen A; enzyme activity, inhibitor, fluorescence): 238000 nM

Cc1c(COc2cc(OCc3cccc(C#N)c3)c(CNC(CO)(CO)CO)cc2Cl)cccc1-c1cccc(OCCCCCCC(=O)NO)c1
IC50 (Histone deacetylase 2 (HDAC2, Homo sapiens, UniProt Q92769); enzyme activity, inhibitor): 60.5 nM

Cc1[nH]nc2c1N=C(c1ccccc1Cl)c1cnc(N3CCOCC3)cc1N2
IC50 (Cytochrome P450 2C8 (CYP2C8, Homo sapiens, UniProt P10632); enzyme activity, inhibitor; human, liver microsomes): 6760 nM

OC[C@@H]1[C@@H](O)[C@H](O)[C@@H](O)CN1CCCCCOCc1ccc(-c2ccccc2)cc1C(F)(F)F
IC50 (GBA2; inhibitor, 4MU-β-D-glucopyranoside; HEK293T homogenates overexpressing GBA2): 0.12 nM

Cc1nn(-c2cccc(N)c2)c(=O)c2cnc(Nc3ccc(N4CCNCC4)cc3)nc12
IC50 (Tyrosine-protein kinase Fyn (FYN, Homo sapiens, UniProt P06241); enzyme activity, inhibitor): 2810 nM

C/C1=C\CC/C(C)=C/CC(C)(C)/C=C/C1
IC50 (Transient receptor potential cation channel subfamily V member 1 (TRPV1, Homo sapiens, UniProt Q8NER1, M514Q); ion current, inhibitor, patch clamp): 18000 nM

C[C@H](c1ccccc1)N1C(=O)C2=Nc3cccc(Cl)c3CN2C1=S
IC50 (Mitogen-activated protein kinase 14 (MAPK14, Homo sapiens, UniProt Q16539); enzyme activity, inhibitor): 131 nM

Cn1cncc1C#Cc1ccc2[nH]c3c(c2c1)-c1nc(N)ncc1CC3
IC50 (PIP4K2C; target engagement in cells, BRET): 2400 nM

O=C(Nc1cccc(N2CCNCC2)c1)c1cc(-c2ccccc2)n(-c2ccccc2)n1
IC50 (Genome polyprotein, NS2B-NS3 protease (ZIKV, UniProt A0A024B7W1); protease activity, inhibitor; Zika virus; isolated protease): 8300 nM

Cc1cccc(-n2nc(S)sc2=S)c1
IC50 (Adenylate cyclase type 10 (Homo sapiens, UniProt Q96PN6); enzyme activity, inhibitor): > 20000 nM

OC[C@H]1[C@@H](O)[C@H](O)[C@@H](O)CN1CCCCCOCc1ccc2ccccc2c1
IC50 (GBA2; inhibitor, 4MU-β-D-glucopyranoside; HEK293T homogenates overexpressing GBA2): 1 nM

O=C(C(C(F)(F)F)C(F)(F)F)N1CCc2ccccc21
IC50 (Chymotrypsinogen A; enzyme activity, inhibitor, fluorescence): 15000 nM

Cc1ccc2nc(C)n(/N=C/c3ccc(C(=O)O)cc3)c(=O)c2c1
IC50 (Cathepsin B (CTSB, Homo sapiens, UniProt P07858); enzyme activity, inhibitor): 75100 nM

CCCCCNC(=O)C1C(O)C(O)C(O)C(CO)N1CCCC (stereo not drawn)
IC50 (GBA2; inhibitor, 4MU-β-D-glucopyranoside; HEK293T homogenates overexpressing GBA2): 20 nM

C[C@@H]1Cc2c([nH]c3ccccc23)[C@@H](c2c(F)cc(/C=C/C(=O)O)cc2F)N1C12CC(C1)C2
IC50 (Estrogen receptor (ESR1, Homo sapiens, UniProt P03372); cell-free assay): 0.404 nM

C[C@@H](O)[C@@H]1NC(=O)[C@H](CCCCN)NC(=O)[C@@H](Cc2c[nH]c3ccccc23)NC(=O)[C@H](Cc2ccc(NC(N)=O)cc2)NC(=O)[C@H](NC(=O)[C@H](Cc2ccccc2)NC(N)=O)CSSC[C@@H](C(=O)N[C@@H](Cc2ccc3ccccc3c2)C(N)=O)NC1=O
IC50 (Somatostatin receptor type 2 (SSTR2, Homo sapiens, UniProt P30874); radioligand binding, inhibitor, competitive radioligand displacement; cloned receptor): 89 nM

O=C(O)COc1ccccc1NC(=O)C(C(F)(F)F)C(F)(F)F
IC50 (Chymotrypsinogen A; enzyme activity, inhibitor, fluorescence): 120000 nM

OC[C@@H]1[C@@H](O)[C@H](O)[C@@H](O)CN1CCCCCOCc1ccc(-c2cccc(F)c2)cc1
IC50 (GBA2; inhibitor, 4MU-β-D-glucopyranoside; HEK293T homogenates overexpressing GBA2): 1 nM

O=C(NCc1cccc(-n2cccn2)c1)C(C(F)(F)F)C(F)(F)F
IC50 (Chymotrypsinogen A; enzyme activity, inhibitor, fluorescence): > 100000 nM

Nc1ncc2c(n1)-c1c([nH]c3ccc(-c4ccc(F)cc4)cc13)CCC2
IC50 (PIP4K2C; target engagement in cells, BRET): 77 nM

N#Cc1cnc(NC(=O)Nc2cc(Cl)ccc2OC2CCOC2)cn1 (stereo not drawn)
IC50 (CHEK1; enzyme activity, inhibitor): 2.95 nM

OC[C@@H]1[C@@H](O)[C@H](O)[C@@H](O)CN1CCCCOCCC12CC3CC(CC(C3)C1)C2
IC50 (GBA2; inhibitor, 4MU-β-D-glucopyranoside; HEK293T homogenates overexpressing GBA2): 4.15 nM

CCN(CC)CC(=O)Nc1cccc(-n2cc(-c3ccc4ccc(-c5cn(-c6cccc(NC(=O)CN(CC)CC)c6)nn5)cc4c3)nn2)c1
IC50 (Protein kinase C theta type (PRKCQ, Homo sapiens, UniProt Q04759); enzyme activity, inhibitor): > 10000 nM

For quick reference, copied from above:
NCCCCOC(=O)c1ccc(/N=N/c2ccccc2)cc1
IC50 (Islet amyloid polypeptide (IAPP, Homo sapiens, UniProt P10997); ThT displacement, ThT fluorescence; pH 7.4, preformed target-ThT complex, together with: 5 µM ThT): 3500 nM

Cc1c(Cc2ccc(OC(C)C(=O)O)cc2)c2ccc(C(=O)NC(C)c3cccc(C(F)(F)F)c3)cc2n1C (mixture of isomers)
IC50 (PPARA ligand-binding domain; reporter gene, luciferase reporter; HEK293T, Gal4-PPARα LBD): 4600 nM

COc1cc(/C=C/C(=O)Oc2ccc(C(F)(F)F)c(C(F)(F)F)c2)ccc1O
IC50 (3-oxo-5-alpha-steroid 4-dehydrogenase 1 (SRD5A1, Homo sapiens, UniProt P18405); enzyme activity in cells, inhibitor): 10100 nM

Cc1c(Cc2cccc(OC(C)C(=O)O)c2)c2ccc(C(=O)NC(C)c3ccc(C4CC4)cc3)cc2n1C (mixture of isomers)
IC50 (PPARA ligand-binding domain; reporter gene, luciferase reporter; HEK293T, Gal4-PPARα LBD): 31900 nM

OB1c2sccc2C=NN1Cc1ccccc1
IC50 (Urokinase-type plasminogen activator (PLAU, Homo sapiens, UniProt P00749); enzyme activity, inhibitor): > 100000 nM
